Measurements of several laboratories.
Protocols differ between the studies behind these lines. Several values in a cell are separate wells, animals, samples, runs or records. Numbers after ± are the reported error. Converted amounts (≈) assume the structure as drawn.

Structure (SMILES) | target or system | test | system | setting | how to read | endpoint | value
C(=N\Nc1nc(-c2ccccn2)nc2ccccc12)/c1ccccc1 | Mus musculus | gene silencing, high-content imaging | LDR reporter GFP cells | retest run 1 |  | AC50 | 10 µM
CC(C)n1ncc2c(C(=O)NCC(C)(C)N)cc(C3CC3)nc21 | Enterovirus D68 | viral replication | RD, US/MO/14-18947 | 10 nM |  | plaque reduction | 8.56% and 0%
O=[N+]([O-])C(=C\Nc1ccccc1O)/C=N/c1ccccc1O | Mus musculus | gene silencing, high-content imaging | LDR reporter GFP cells | 30 h, confirmation, mean of two runs |  | Emax | 29%
COc1ccc(S(=O)(=O)N(C)c2cc(OC)c(OC)cc2NC(C)=O)cc1 | Leishmania infantum | intracellular amastigote growth | U-937 macrophages and HeLa |  | baseline: IC50 HeLa over IC50 amastigotes | selectivity index | 1.3
O=S(=O)(c1ccc(-c2ccc3ncnc(Nc4ccc(OCc5ccc(C(F)(F)F)c(F)c5)c(Cl)c4)c3c2)cc1)N1CCOCC1 | Leishmania major | parasite growth, resazurin |  | promastigote |  | EC50 | > 15 µM
O=C(CSc1cccc[n+]1[O-])c1ccccc1Br | Mus musculus | gene silencing, high-content imaging | LDR reporter GFP cells | retest run 1 |  | AC50 | 25.1 µM
C=C[C@]1(C)C[C@@H](OC(=O)CSc2ccc(NC(=O)c3ccco3)cc2)[C@]2(C)[C@H](C)CC[C@]3(CCC(=O)[C@H]32)[C@@H](C)[C@@H]1O | Mycoplasma gallisepticum |  | infected chickens, lung | intramuscular, 80 mg/kg daily x3, 72 h | baseline: 0 h | lung mycoplasma load reduction | 3.13 log10 CFU/mL and 2.24 log10 CFU/mL and 2.83 log10 CFU/mL and 2.87 log10 CFU/mL and 4.13 log10 CFU/mL and 3.44 log10 CFU/mL and 3.46 log10 CFU/mL
O=S(=O)(c1ccc(-c2ccc3ncnc(Nc4ccc(OCc5cccc(F)c5)c(Cl)c4)c3c2)cc1)N1CCCC1 | Leishmania major | parasite growth, resazurin |  | promastigote |  | EC50 | > 15 µM
C=C(NC(=O)c1csc(-c2nc3c(cc2O)-c2nc(cs2)C(=O)NC(C(C)O)C(=O)NC(=C(C)OC)c2nc(cs2)C(=O)NC2c4nc(cs4)C(=O)NC(COC(=O)c4c5c6c(cccc6n4O)COC(=O)C(OC4CC(C)(O)C(N(C)C)C(C)O4)C2OC5)c2nc-3cs2)n1)C(N)=O (stereo not shown) | Staphylococcus epidermidis |  | methicillin-resistant, 10 isolates | serum 0% |  | MIC50 | 0.0156 µg/mL (≈ 0.0109 µM)
COc1ccc(NC(=O)CSc2nc3c(oc4ccccc43)c(=O)n2Cc2ccco2)cc1Cl | Mus musculus | gene silencing, high-content imaging | LDR reporter GFP cells | confirmation, mean of two runs |  | EC50 | 12.6 µM
C[n+]1ccc(/C=N/NC(=O)c2ccc3ccc4ccc(C(=O)N/N=C/c5cc[n+](C)cc5)nc4c3n2)cc1 | MYC parallel G4 DNA | FRET melting |  | 1 µM, DNA 0.2 µM |  | ΔTm | 10.5 ± 0.5 °C
COc1nc(Nc2nc(O)c3ccccc3n2)nc2ccc(C)cc12 | Mus musculus | gene silencing, high-content imaging | LDR reporter GFP cells | retest run 2 |  | AC50 | 3.98 µM
CN1CCN(S(=O)(=O)c2cccc(-c3ccc4ncnc(Nc5ccc(OCc6cccc(F)c6)c(Cl)c5)c4c3)c2)CC1 | Leishmania major | parasite growth, resazurin |  | promastigote |  | EC50 | > 15 µM
[2H]C([2H])(N)C([2H])([2H])NC(=O)c1cc(C2CC2)nc2c1cnn2C(C)C | Enterovirus D68 | viral replication | RD, US/MO/14-18947 | 300 nM |  | plaque reduction | 74.9% and 58.1%
COC1CN([C@H]2CC[C@H]([C@@]3(C)Oc4c(Cl)cc(C(=O)NCc5c(SC)cc(C)[nH]c5=O)c(C)c4O3)CC2)C1 |  | RNA-seq, item: CERS4 | human, whole blood | dose not given, 24 h | baseline: pretreatment baseline | log2 fold change | 3.05
O=S(=O)(c1ccc(-c2ccc3ncnc(Nc4ccc(OCc5cccc(F)c5)cc4)c3c2)cc1)N1CCOCC1 | Leishmania major | parasite growth, resazurin |  | promastigote |  | EC50 | 0.48 µM
CC[n+]1cccc2cc(/C=N/NC(=O)C(=O)N/N=C/c3ccc4c(ccc[n+]4CC)c3)ccc21 | MYC parallel G4 DNA | FRET melting |  | 1 µM, DNA 0.2 µM, added: duplex DNA competitor 10 µM |  | ΔTm | 3.6 ± 0.2 °C
CN(Cc1ccc(C2(C(F)(F)F)CCC2)cc1)Cc1cccc2ccccc12 | Trichophyton mentagrophytes | microbial growth, disc diffusion | ATCC18748 | 0.001 µg/mL, 72 h |  | inhibition zone | 0 mm
Fc1cccc(COc2ccc(Nc3ncnc4ccc(-c5cccc(N6CCSCC6)c5)cc34)cc2Cl)c1 | Leishmania major | parasite growth, resazurin |  | promastigote |  | EC50 | > 15 µM
CCN(CC)CCCNC(=O)CSc1c2c(nc3cc(Cl)ccc13)CCCC2 | Mus musculus | gene silencing, high-content imaging | LDR reporter GFP cells | retest, mean of two runs |  | EC50 | 10 µM
CN1CCN(S(=O)(=O)c2ccc(-c3ccc4ncnc(Nc5ccc(OCc6ccccc6)c(Cl)c5)c4c3)cc2)CC1 | Leishmania major | parasite growth, resazurin |  | promastigote |  | EC50 | 3.4 µM
CC(C)(C)NCC(SS(=O)(=O)O)c1ccccc1 (stereo not shown) | Schistosoma mansoni |  | infected mice | 200 mg/kg single, day 42, perfusion day 56 | baseline: vehicle | male worm burden reduction | 57%

Some of these lines once more:
Structure (SMILES) | target or system | test | system | setting | how to read | endpoint | value
COC1CN([C@H]2CC[C@H]([C@@]3(C)Oc4c(Cl)cc(C(=O)NCc5c(SC)cc(C)[nH]c5=O)c(C)c4O3)CC2)C1 |  | RNA-seq, item: CERS4 | human, whole blood | dose not given, 24 h | baseline: pretreatment baseline | log2 fold change | 3.05
O=S(=O)(c1ccc(-c2ccc3ncnc(Nc4ccc(OCc5cccc(F)c5)cc4)c3c2)cc1)N1CCOCC1 | Leishmania major | parasite growth, resazurin |  | promastigote |  | EC50 | 0.48 µM
CC[n+]1cccc2cc(/C=N/NC(=O)C(=O)N/N=C/c3ccc4c(ccc[n+]4CC)c3)ccc21 | MYC parallel G4 DNA | FRET melting |  | 1 µM, DNA 0.2 µM, added: duplex DNA competitor 10 µM |  | ΔTm | 3.6 ± 0.2 °C
